Measured values of several laboratories.
Numbered parts are unrelated; each lists some results of a single study.

Series 1
Target: Sal-like protein 4, full length isoform B (SALL4, Homo sapiens, UniProt Q9UJQ4-2, residues 1-616)
Method: universal PBM
Form: double-stranded DNA, one strand shown
Matrix: in vitro
Concentration: not given
Notes: 8-mer, flanks averaged, mean of replicates
Reading: higher = stronger binding
Measurement: E-score
CTCTTTTA: 0.104
CACGCCCA: -0.252
GGCCGGGA: -0.174
GCCCCTTA: -0.146
CGATTCAG: -0.166
AGGCAGGA: -0.0322
ACTTAAAA: 0.201
TAACACCA: 0.142
AGGCCATC: -0.0649
ACCTGTTG: 0.0554
AGACGGAA: -0.0896
GCTAAGAA: -0.152
CAAACTGG: -0.278
TCCGGCAA: -0.148
ATCGCGTA: 0.0648
TATGTGAA: 0.289
AGATCATG: 0.0426
GTTGCACA: -0.0412
AATCGTTC: 0.0654
AACAAAGC: 0.194
CCAAGTGG: -0.15
GGTTGCAA: -0.0355
ATAAGTAC: 0.285
ACGCTCCA: -0.0615
GAAACGAA: 0.0777

Series 2
Target: RNA binding protein fox-1 homolog 2, RRM domain, GST-SBP tag (RBFOX2, Homo sapiens, UniProt O43251-10, residues 100-194)
Method: RNA Bind-n-Seq
Form: RNA
Matrix: in vitro
Concentration: 365 nM
Notes: natural RNA segment, single round, ends assumed
Relative to: no-protein control
Reading: higher = stronger binding
Measurement: RBNS enrichment (R)
Shared flanks, not repeated: GGGAGUUCUACAGUCCGACGAUC … UGGAAUUCUCGGGUGCCAA
Construct (chain): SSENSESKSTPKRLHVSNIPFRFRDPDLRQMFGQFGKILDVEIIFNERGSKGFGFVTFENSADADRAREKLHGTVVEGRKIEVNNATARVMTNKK
UGUACAUACAUGGGCUCAGCCCUGGGCCAAAUGUGCCUGAUGGGAACAGACUUGCAGGGCCAUGCAGGCCAGACUUCGUGCCUUAACUGAAGAGUGUGCGUGUGUGUGUG: 0.364
CAUUCAGGGUCAGUAGGGAGGACAAAAUAGGGGGCUCUACGUGCAGUGAGGAAAGGCUGCUGUCAUGGUGUGGCCCUGCCUCACUGUCAAUAUCUGUUUUCUCUGGAGAG: 0.456
CACUGGAAGUCAUAGAAAUUUCCCUGGUCAUGCUUUGUUUGAACUGUCACUGAAUGAACCUUAUCGGGCAUAACUACAUGAAAAUGCAGUGACAGCUGAGUGUGCUGUGU: 0.71
UGGCAAGGUGUAGGAGGGACCUUGAACCUGGCUGGCCAGGGCAGCAGCAGGAGUAGGUAGAGCUGUUGUUCCUUCUGGGCUGUCUCCAUCCAUCUAUACCCCUUUCAUGC: 0.659
GUGACAAAGUUUGCACUUACAAAAUCAUGUAAAUAUGUCACAUUUUGUUUUAACAUUUUUUUCAAAGUAUUUAGGUAAUGAUGUAUUAACUUCACAUUCAGAUUUAUGUU: 0.683
GAGGGACUGAGUGGCCCGCGGGCCCCAGUGAGGCACUUUGUCCCGCCCAGCGCUGGCCAGCCCCGAGGAGCCGCUGCCUUCACCGCCCCGACGCCUUUUAUCCUUUUUUA: 0.572
GUUGGGAGGCAGGUCGGGCUGCCAGCCCAGCUGGCCGGAAGGAGACUGUGGUUUUUGUGUGUGUGGACAGCCCGGGAGCUUUGAGACAGGUGCCUGGGGCUGGCUGCAGA: 0.898
GAUGAUUUUCGGAUGUAGGAGAAUGGAAAUGAUAGAACAUUACAGCAAGAGACUGAAUGUUUCCUGAAGUAUUACCAUGACCCAAGGCAGAGAGAAACCAUGGGAACUCC: 0.239

Series 3
Target: Prothrombin, mature alpha-thrombin (F2, Homo sapiens, UniProt P00734)
Method: aptamer microarray, sandwich
Form: DNA with 2'F-ANA
Matrix: in vitro
Concentration: 200 nM
Notes: whole 15-mer aptamer, many near background
Added: Cy3 exosite-II aptamer, 400 nM
Reading: higher = stronger binding
Measurement: mean fluorescence intensity
Oligonucleotide: GGTTGGTGTGGTTGG
2'F-ANA at 1 2 3 5 6 7 10 11 13 15: 50.9 a.u.
2'F-ANA at 1 7 8 12 15: 513 a.u.
2'F-ANA at 2 3 4 10 12 13 14: 200 a.u.
2'F-ANA at 1 2 3 5 8 9 10 11 12 13 14 15: 59.3 a.u.
2'F-ANA at 2 3 10 11 12 15: 673 a.u.
2'F-ANA at 1 4 5 7 10 14 15: 58.7 a.u.
2'F-ANA at 1 2 3 4 5 9 10 11 12 13 14 15: 52.7 a.u.
2'F-ANA at 2 4 5 6 8 9 10 11 14: 47.9 a.u.
2'F-ANA at 1 6 7 10 11 12 13 14 15: 52.3 a.u.
2'F-ANA at 3 5 8 9: 138 a.u.
2'F-ANA at 3 7 11 12 14 15: 824 a.u.
2'F-ANA at 3 6 8 9 10: 536 a.u.
2'F-ANA at 2 9 10 14: 89 a.u.
2'F-ANA at 8 9 10 12 13 14: 106 a.u.
2'F-ANA at 1 3 8 10 11 12 14: 119 a.u.
2'F-ANA at 1 2 4 5 7 9 11 12 15: 82.5 a.u.
2'F-ANA at 1 2 3 6 7 10 11 12: 76.8 a.u.
2'F-ANA at 4 6 7 8: 412 a.u.
2'F-ANA at 4 5 6 10 11: 45.1 a.u.

Series 4
Target: Max dimerization protein 1, bHLH-zipper, MAX partner unstated (MXD1, Homo sapiens, UniProt Q05195, residues 56-136)
Method: protein-binding microarray
Form: double-stranded DNA, one strand shown
Matrix: in vitro
Concentration: not given
Notes: k-mer, scored over probes, only values ≥0.25
Reading: higher = stronger binding
Measurement: E-score
Residues (chain): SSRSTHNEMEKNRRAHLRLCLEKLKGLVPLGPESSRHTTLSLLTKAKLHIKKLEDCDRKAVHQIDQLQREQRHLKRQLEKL
ATGTGCCG: 0.268
CGTGTGGC: 0.357
AGCATATG: 0.293
ACGTTGCA: 0.265
CCCACACC: 0.297
CAACCACG: 0.351
GCGTGGGA: 0.394
CACGAAAC: 0.264
AACATGGG: 0.316
CCGGCACG: 0.298
AGGCGTGC: 0.324
ATATGGCA: 0.275
CCGCATGA: 0.321
CCCCGTGA: 0.349
ACAGCATG: 0.416
TGCCCGCA: 0.254
CATGCTTA: 0.403
CACCCCTC: 0.311
CCGCGTGC: 0.442
CTCGTGCC: 0.335
ATGCATGG: 0.357
ACGTGTAC: 0.34
CATGCGCG: 0.407
GAGCATGA: 0.297
CACATTGC: 0.339

Series 5
Target: Histone acetyltransferase KAT6A, winged helix 1, GST fusion (KAT6A, Homo sapiens, UniProt Q92794, residues 1-85)
Method: protein binding microarray
Form: double-stranded DNA, one strand shown
Matrix: in vitro
Concentration: not given
Notes: 8-mer, flanks averaged, mean of 2 arrays, mostly near background
Relative to: not given
Reading: higher = stronger binding
Measurement: E-score
Construct (chain): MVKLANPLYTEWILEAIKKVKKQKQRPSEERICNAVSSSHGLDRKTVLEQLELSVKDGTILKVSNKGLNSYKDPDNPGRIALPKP
TGTCACAA: -0.126
AACAGAGT: -0.141
CCAGGGCC: -0.0227
CCTTTGAA: -0.167
ACCCAAGC: -0.0207
ATACACCA: -0.152
CATTATGC: -0.0724
CATTGCTC: -0.159
AACGCGAG: 0.172
CCGCCACG: 0.346
ATAAGTAG: 0.0243
ACTGGGGG: -0.0163
AAACTAGT: -0.0246
TAGGAGGA: -0.144
ATCCAATC: -0.161
ATTCTATG: -0.163
AAAGACCC: -0.127
CGATCCAC: -0.111
AGGGATAC: -0.0997
GCCAACCA: 0.0901
ATGAAGCG: 0.109
CTCGAACA: -0.225
GACATGGC: -0.0948
CAAAGCAC: -0.0675
GCTGCCGA: 0.235
